Measured values from different studies.
Numbered parts are unrelated; each lists some results of a single study.
Chain of UniProt P60842 (whole entry, looked up): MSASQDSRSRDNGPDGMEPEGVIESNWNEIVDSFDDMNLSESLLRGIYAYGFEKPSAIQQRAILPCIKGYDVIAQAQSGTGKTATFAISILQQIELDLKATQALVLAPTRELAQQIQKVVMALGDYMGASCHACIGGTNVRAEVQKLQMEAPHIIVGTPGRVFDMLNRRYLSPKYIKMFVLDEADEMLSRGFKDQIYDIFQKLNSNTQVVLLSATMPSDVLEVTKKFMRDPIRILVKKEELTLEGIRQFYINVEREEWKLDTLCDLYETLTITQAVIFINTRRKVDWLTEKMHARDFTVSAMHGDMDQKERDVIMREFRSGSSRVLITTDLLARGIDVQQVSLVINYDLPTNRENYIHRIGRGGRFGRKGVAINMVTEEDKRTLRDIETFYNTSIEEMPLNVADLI

Block 1
Cell line: HEK-293T-ACE2
Concentration: concentration not given
Baseline: vehicle
Compound	cell number [%]
CNC(=C[N+](=O)[O-])NCCSCc1ccc(CN(C)C)o1	104
FC(F)(F)C(Cl)Br (stereo not shown)	101
S=c1nc[nH]c2nc[nH]c12	106
CNC(=O)c1cnn(-c2nc(N)c3ncn([C@@H]4O[C@H](CO)[C@@H](O)[C@H]4O)c3n2)c1	102

Block 2
Target: Replicase polyprotein 1ab, main protease (rep, Severe acute respiratory syndrome coronavirus 2, UniProt P0DTD1)
Read-out: enzyme activity
Action: inhibitor
Concentration: 20 µM
Notes: primary screen
SMILES	inhibition
O=C(NC(=S)N1CCCc2ccccc21)c1ccccc1	74.9%
O=[N+]([O-])C=Cc1ccc2c(c1)OCO2	98.8%
CC[C@]1(O)C[C@@H]2C[N@@](CCc3c([nH]c4ccccc34)[C@@](C(=O)OC)(c3cc4c(cc3OC)N(C)[C@H]3[C@@](O)(C(=O)OC)[C@H](OC(C)=O)[C@]5(CC)C=CCN6CC[C@]43[C@@H]65)C2)C1	47.6%
Cc1cc(-c2cc(O)ccc2Cl)cc2nnc(Nc3ccc(OCCN4CCCC4)cc3)nc12	30.7%

Block 3
Target: Interferon regulatory factor 5, full length, phosphomimetic (IRF5, Homo sapiens, UniProt Q13568-2, residues 1-514, S451D/S453D/S456D/S462D)
Technique: protein-binding microarray
Form: double-stranded DNA, one strand shown
Medium: in vitro
Concentration: 940 nM top
Notes: 60-bp whole probe
Added: salmon DNA 0.4 mg/ml
Baseline: random background probes
Direction: higher = stronger binding
Constant ends, left off below: GCCTAGCAC … GTCTTGATTCGCTTGACGCTGCTG
Oligonucleotide	fitted relative affinity [z-score]
TCAAACCTGGGTCTCTGACTGTGCTAG	-0.71
TTAGGTTTCTGGTATCGGTTAGTGCTA	7.28
GGTGTTTTCTAAACCATTGTGTGCTAG	-0.0119
TCATGTCTGGGTCTTGGACTGTGCTAG	-0.221
TTAGGTTCCGTTTTCCTTTAGTGCTAG	1.95
TAGAGTCTCAACCCCCAATAAGTGCTA	0.937
GACGATCTCAGTCTCGTGACGTGCTAG	0.186
TTAGGTTTCGGGTTTCGGTAAGTGCTA	11.5

Block 4
Target: POU, POU domain (Salpingoeca helianthica)
Technique: Spec-seq
Form: double-stranded DNA, one strand shown
Medium: in vitro
Concentration: not given
Notes: whole probe, mean of replicates
Baseline: not given
Direction: lower = stronger binding
Constant ends, left off below: GAGTCGTCTCGTCAGCAC … CCGTAGAGCACTCAGGTC
Residues (chain): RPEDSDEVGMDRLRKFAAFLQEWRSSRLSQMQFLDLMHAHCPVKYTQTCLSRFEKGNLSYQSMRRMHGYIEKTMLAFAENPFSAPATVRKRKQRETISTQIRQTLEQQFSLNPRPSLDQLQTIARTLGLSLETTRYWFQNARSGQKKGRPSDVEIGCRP
Oligonucleotide	relative binding energy [ln ratio]
ATGCGGTA	1.46
ACACTAAT	0.419
CAGTTAAT	-0.559
ATGCGTCC	1.04
ATGCCAGA	1.19

Block 5
Target: Replicase polyprotein 1ab, polymerase (rep, Severe acute respiratory syndrome coronavirus 2, UniProt P0DTD1)
Read-out: enzyme activity
Action: inhibitor
Concentration: 20 µM
SMILES	inhibition
O=[N+]([O-])c1c(Nc2cc(F)cc(Cl)c2)ccc2nonc12	-0.92%
CCN(CC)Cc1ccc(C(=O)N(CCc2ccccc2OC)[C@@H]2CCNC2)cc1	-4.19%
O=c1ccc2cc(O[C@@H]3O[C@H](CO)[C@@H](O)[C@H](O)[C@H]3O)c(O)cc2o1	2.76%
Cc1nn(-c2ccccc2)c(C)c1/C=N/N1CCN(Cc2ccccc2)CC1	-1.45%
O=C(O)CCNC(=O)c1ccccc1	-1.98%
COc1[nH]c2ccc(F)cc2c1C(=O)OCC1CCN(CCNS(C)(=O)=O)CC1	2.82%
Nc1nc(=O)c2c([nH]1)NCC(CNc1ccc(C(=O)N[C@@H](CCC(=O)O)C(=O)O)cc1)N2C=O (stereo partly shown)	26.7%
C=CCNC(=O)c1cc([N+](=O)[O-])cc2c(=O)[nH]c(Nc3ccc(Cl)c(Cl)c3)nc12	44.8%
Cc1cc(CN2CCN(c3c(Br)cnc4nc(-c5ccc(N6CCN(C)CC6)cc5)[nH]c34)CC2)no1	-1.83%
CC1(C)CC(=O)c2c(C(F)(F)F)nn(-c3ccc(C(N)=O)c(N[C@H]4CC[C@H](O)CC4)c3)c2C1	0.1%
CNC(C)CC1CCCCC1 (stereo not shown)	5.19%
NCc1c[nH]c(=S)n1[C@H]1CCc2c(F)cc(F)cc2C1	-0.79%
CN[C@H]1C(=O)N[C@@H]2Cc3ccc(cc3)Oc3cc4cc(c3O[C@@H]3O[C@H](C(=O)O)[C@@H](O)[C@H](O)[C@H]3NC(=O)CCCCCCCCC(C)C)Oc3ccc(cc3Cl)[C@@H](O)[C@@H]3NC(=O)[C@H](NC(=O)[C@@H]4NC(=O)[C@@H](NC2=O)c2cc(cc(O)c2Cl)Oc2cc1ccc2O)c1ccc(O)c(c1)-c1c(O[C@H]2O[C@H](CO)[C@@H](O)[C@H](O)[C@@H]2O)cc(O)cc1[C@@H](C(=O)NCCCN(C)C)NC3=O	21.5%
C#Cc1cccc(Nc2ncnc3cc4c(cc23)OCCOCCOCCO4)c1	3.51%
O=c1cccc2n1C[C@@H]1CNC[C@H]2C1	-0.44%
CC(=O)O[C@H]1CC[C@@]2(C)C(=CC(=O)[C@@H]3[C@@H]2CC[C@]2(C)C(=O)CC[C@@H]32)C1	-3.69%
O=C1C(=Cc2cccnc2)C(=O)c2ccccc21	66.4%
Clc1ccc2c(NCCNc3ccnc4cc(Cl)ccc34)ccnc2c1	5.03%
Cc1cc(CN)cc(C)c1NC(=O)c1ccc(-c2cc(Cl)ccc2Cl)o1	-1.74%
Cn1c(=O)n(-c2ccc(C(C)(C)C#N)cc2)c2c3cc(-c4cnc5ccccc5c4)ccc3ncc21	-4.67%
C1N2CN3CN1CN(C2)C3	1.55%
COc1ccc(S(=O)(=O)N(C(C)=O)c2ccccc2/C=C/c2cc[n+]([O-])cc2)cc1	2.89%
COc1cc2c(cc1OC)-c1cc3nc4ccccc4nc3n1C(C)(C)C2	-1.24%
Cc1cc(O)ccc1Cl	0.64%
Cc1nc(N)sc1CCN	0.53%

Block 6
Target: Histone acetyltransferase KAT6A, winged helix 1, GST fusion (KAT6A, Homo sapiens, UniProt Q92794, residues 1-85)
Technique: protein binding microarray
Form: double-stranded DNA, one strand shown
Medium: in vitro
Concentration: not given
Notes: 8-mer, flanks averaged, mean of 2 arrays, mostly near background
Baseline: not given
Direction: higher = stronger binding
Residues (chain): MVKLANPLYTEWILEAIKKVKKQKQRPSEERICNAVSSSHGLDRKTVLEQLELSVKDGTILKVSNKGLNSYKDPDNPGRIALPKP
Oligonucleotide	E-score
CGCGCCAC	0.314
CAGAGACG	0.0394
CCCAACAA	-0.197
AAAGCATC	0.128
GATGATCC	0.0202
CCGCGGCA	0.454
AATTGCCA	-0.282
AACCTTGT	-0.0122

Other studies, line by line
Oligonucleotide	target	test	test system	conditions	scale	endpoint	value
CUUC	Eukaryotic initiation factor 4A-I (EIF4A1, Homo sapiens, UniProt P60842, residues 1-406, full length assumed)	RNA Bind-n-Seq	RNA, in vitro	15 pmol, 4-mer, random 30-nt RNA, single round, added: DMSO vehicle, 2 mM AMP-PNP	baseline: input library, higher = stronger binding	4-mer enrichment	1.37 fold

Some of these lines once more (block 5):
SMILES	inhibition
O=c1ccc2cc(O[C@@H]3O[C@H](CO)[C@@H](O)[C@H](O)[C@H]3O)c(O)cc2o1	2.76%
Cc1nn(-c2ccccc2)c(C)c1/C=N/N1CCN(Cc2ccccc2)CC1	-1.45%
O=C(O)CCNC(=O)c1ccccc1	-1.98%
COc1[nH]c2ccc(F)cc2c1C(=O)OCC1CCN(CCNS(C)(=O)=O)CC1	2.82%
Nc1nc(=O)c2c([nH]1)NCC(CNc1ccc(C(=O)N[C@@H](CCC(=O)O)C(=O)O)cc1)N2C=O (stereo partly shown)	26.7%
C=CCNC(=O)c1cc([N+](=O)[O-])cc2c(=O)[nH]c(Nc3ccc(Cl)c(Cl)c3)nc12	44.8%
Cc1cc(CN2CCN(c3c(Br)cnc4nc(-c5ccc(N6CCN(C)CC6)cc5)[nH]c34)CC2)no1	-1.83%
CC1(C)CC(=O)c2c(C(F)(F)F)nn(-c3ccc(C(N)=O)c(N[C@H]4CC[C@H](O)CC4)c3)c2C1	0.1%
CNC(C)CC1CCCCC1 (stereo not shown)	5.19%
